Measurements collected from several papers.
Every numbered part comes from another study and shows a few of its results, in no order. Changes are numbered by the printed parent chain.

Study 1 — target: CCNB3, cyclin fold, Cln2 fusion (human); technique: yeast growth competition, sequencing; sample: yeast; notes: strong parent motif; baseline: not given; reading: higher = stronger binding
Parent: BRCA2 docking peptide (human); PSIKRNLLNEFDR
| Change | normalised enrichment score |
| --- | --- |
| I3S | 0.571 |
| E10G | -0.136 |
| F11I | 0.624 |
| D12F | 0.554 |
| N9M | 1.91 |

Study 2 — technique: Sort-seq; refers to: YFP reporter; sample: E. coli; notes: PhoQ-PhoP variant library; together with: 10 µM Mg2+; baseline: high Mg2+ state; reading: higher = stronger signaling
Substance: PhoQ, residues 284 288 289 292 302 303 SCCLKL
| target | fold induction |
| --- | --- |
| PhoP, residues 12 14 15 18 19 TQALL (Escherichia coli, UniProt P23836) | 10.3 |
| PhoP, residues 12 14 15 18 19 NYFRM (Escherichia coli, UniProt P23836) | 6.78 |
| PhoP, residues 12 14 15 18 19 QYFSL (Escherichia coli, UniProt P23836) | 4.91 |

Study 3 — technique: RNA Bind-n-Seq; molecule type: RNA; sample: in vitro; concentration: 200 nM; notes: whole 134-nt RNA, ends assumed; together with: 150 mM KCl; baseline: input library; reading: higher = stronger binding
Target: Fragile X messenger ribonucleoprotein 1, C-terminal low-complexity region (Fmr1, Mus musculus, UniProt P35922)
| Strand | log2 enrichment |
| --- | --- |
| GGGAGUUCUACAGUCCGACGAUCGCAGGAAGUAAAAACAAAUGGAAAUGCUUCGGAUAGUGGCAGGGGUGGGGGUUGCUAAGGAAAGGGAAAGAUGGGAGUGGGUAAAGAGUUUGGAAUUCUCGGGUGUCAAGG | 0.119 |
| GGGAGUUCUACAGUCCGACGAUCCCUCAAGUCCUGUGCUACACAUCGUAUGUACCGAAUCGGAGGGAGGGGAGGGGAAAGUAUUAUGUUACGCCGUUCGGAUCUGCACUUCCAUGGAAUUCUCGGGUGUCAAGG | 0.583 |
| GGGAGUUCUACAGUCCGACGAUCCCUGUGCUACACAUCGUAUGUACCGAAUCGGGCCCCCCCGGGCCCCCCCGGGCCCCCCCGGAAAGUAUUAUGUUACGCCGUUCGGAUCUGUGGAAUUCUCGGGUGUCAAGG | -0.73 |
| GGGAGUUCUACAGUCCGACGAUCCACAGACAACACGCACCAAAACAGACACAGAGGGAAGGGGUUGGGAUGGGGACAGGGUGCACAGCAGGGCGGGGUAGGACCCCAGCCCCUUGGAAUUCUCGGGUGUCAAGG | 1.27 |
| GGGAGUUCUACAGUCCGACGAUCUCCUGUGCUACACAUCGUAUGUACCGAAUCGGGGUUUUUGGGGUUUUUGGGGUUUUUGGGAAAGUAUUAUGUUACGCCGUUCGGAUCUGCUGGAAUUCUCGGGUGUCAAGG | 0.492 |
| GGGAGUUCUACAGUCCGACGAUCAGUCCUGUGCUACACAUCGUAUGUACCGAAUCGGGGAGGGGAGGGGUUUUUUUGGGGAAAGUAUUAUGUUACGCCGUUCGGAUCUGCACUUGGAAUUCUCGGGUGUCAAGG | 0.95 |
| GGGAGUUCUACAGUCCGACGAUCAGUCCUGUGCUACACAUCGUAUGUACCGAAUCGGGGCCCCGGGCCCCGGCCCCGGGGAAAGUAUUAUGUUACGCCGUUCGGAUCUGCACUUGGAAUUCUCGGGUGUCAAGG | -0.857 |
| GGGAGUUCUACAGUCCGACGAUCGUCCUGUGCUACACAUCGUAUGUACCGAAUCGGGAAAAAAAGGGUUUGGGUUUUUGGGAAAGUAUUAUGUUACGCCGUUCGGAUCUGCACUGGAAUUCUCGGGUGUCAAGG | -0.416 |
| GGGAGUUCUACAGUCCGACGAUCUGAACAGCUCUGCGCUUUUUGUUACUGUGGGGAAAAAAGUUCCUUAGGACAAGGAGACUUAAAACAAUUCAGAAUAACGCCUGGAUUUAUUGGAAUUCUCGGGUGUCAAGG | -0.776 |
| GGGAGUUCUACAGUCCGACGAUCGUCCUGUGCUACACAUCGUAUGUACCGAAUCGGGUUUUUUUGGGUUUUUGGGAAAGGGAAAGUAUUAUGUUACGCCGUUCGGAUCUGCACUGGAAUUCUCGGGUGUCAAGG | -0.0886 |
| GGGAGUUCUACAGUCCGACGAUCUGGGAGGUGGAUUUUGUUUAUUUUUUUAGCUCAUUUCCAGGGGUGGGAAUUUUUUUUUAAUUUGUGUCAUGAAUAAAGUUGUUUUUGAAAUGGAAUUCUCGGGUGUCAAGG | 0.299 |
| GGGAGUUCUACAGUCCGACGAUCUGGCCCUGGUGGCAUGCGGGGAGGAAGAGGUGGCCCCAUGGAUCGUGGUGGUCCCGGUGGAAUGUUCAGAGGUGGCCGUGGUGGAGACAGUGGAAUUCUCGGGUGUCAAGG | 0.0309 |

Study 4 — target: MAFG, bZIP domain (human); technique: DHFR protein complementation; sample: yeast; baseline: wild-type JUN-FOS pair; reading: higher = stronger binding
Notes: single substitutions, most at no-binding floor
Parent: JUN, bZIP domain (human); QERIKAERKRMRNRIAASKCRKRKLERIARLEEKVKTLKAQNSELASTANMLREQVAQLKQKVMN; partner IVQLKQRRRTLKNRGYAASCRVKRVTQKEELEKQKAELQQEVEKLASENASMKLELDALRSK
| Change | binding fitness |
| --- | --- |
| R30K | -1.41 natural log |
| N42Y | -1.42 natural log |
| Q41I | -1.46 natural log |
| E32R | -1.39 natural log |
| L38S | -1.51 natural log |
| I28R | -1.34 natural log |
| E54I | -1.51 natural log |
| A49N | -1.46 natural log |

A few entries again (study 3):
| Strand | log2 enrichment |
| --- | --- |
| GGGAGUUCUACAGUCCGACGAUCUCCUGUGCUACACAUCGUAUGUACCGAAUCGGGGUUUUUGGGGUUUUUGGGGUUUUUGGGAAAGUAUUAUGUUACGCCGUUCGGAUCUGCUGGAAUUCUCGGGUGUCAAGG | 0.492 |
| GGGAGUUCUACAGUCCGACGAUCCACAGACAACACGCACCAAAACAGACACAGAGGGAAGGGGUUGGGAUGGGGACAGGGUGCACAGCAGGGCGGGGUAGGACCCCAGCCCCUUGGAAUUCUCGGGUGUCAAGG | 1.27 |
